Published values gathered from unrelated publications.
Compare with care: the assays were run in different laboratories. Values joined by “and” are separate records of one study, mostly repeats; a detail may differ. ± marks the error that the study gave.
B1: histone H1.3 human; sequence looked up; chain SETAPLAPTIPAPAEKTPVKKKAKKAGATAGKRKASGPPVSELITKAVAASKERSGVSLAALKKALAAAGYDVEKNNSRIKLGLKSLVSKGTLVQTKGTGASGSFKLNKKAASGEGKPKAKKAGAAKPRKPAGAAKKPKKVAGAATPKKSIKKTPKKVKKPATAAGTKKVAKSAKKVKTPQPKKAAKSPAKAKAPKPKAAKPKSGKPKVTKAKKAAPKKK

Substance	target or system	test	system	setting	scale	measurement	value
TCATCCGCTG (PNA, CPP-conjugated)	Salmonella enterica serovar Typhimurium	measured: CFU	peptide, SL1344, Caenorhabditis elegans infection model, worms	2 × MIC, 24 h	relative to: untreated	bacterial load reduction	88.8%
Phosphate	Saccharomyces cerevisiae	cell growth, OD600 after 22 h	PfPiT-expressing strain	with: 93 mM NaH2PO4		EC50	17 ± 1 mM
polymyxin M1	Pseudomonas aeruginosa	broth microdilution	ATCC 27853	with: Survanta 10% (2.5 mg/mL phospholipid)	relative to: without surfactant	MIC fold increase	2 fold
gentamicin sulfate	Pseudomonas aeruginosa		ATCC 27853	18 h, 37 °C, with: LED light 1.57 mW, 10 min		MIC	0.5 µM
CTCATAGACT	Salmonella enterica serovar Typhimurium	RNA-seq, measured: cfa (SL1344_1359)	peptide, SL1344	5 µM, 15 min	relative to: water control	log2 fold change	-2.26
milbemycin oxime	Saccharomyces cerevisiae	cell growth	Pdr5 deleted, Cdr1 overexpressed	2^-6.966 µg/mL, with: fluconazole 1 µg/mL		OD600	1.01 and 1.03 and 1.02
CTCAATCTCT	Salmonella enterica serovar Typhimurium	RNA-seq, measured: htrA (SL1344_0210)	peptide, SL1344	5 µM, 15 min	relative to: water control	log2 fold change	-1.32
polymyxin A1	Pseudomonas aeruginosa	broth microdilution	ATCC 27853	with: Survanta 10% (2.5 mg/mL phospholipid)	relative to: without surfactant	MIC fold increase	2 fold
Ivermectin	Trypanosoma cruzi	parasite growth, CPRG	Vero, Tulahuen (DTU VI) β-galactosidase			IC50	0.00111 mM
aprotinin	Taenia solium	trypan blue uptake	cysts	50 µg/mL		cysticidal efficacy	0%
B1 (histone H1.3 human)	CYB5R4 knockout human cells	PP4 interaction, 3xFLAG-PP4C IP-MS		concentration not given	relative to: CYB5R4 KO over parental	log2 fold change	-1.68
GCCATGCTTT (PNA, CPP-conjugated)	Salmonella enterica serovar Typhimurium		peptide, SL1344	10 µM, 8 h	relative to: untreated	log reduction	4.77 log CFU/mL
CTCATACTCT	Salmonella enterica serovar Typhimurium	RNA-seq, measured: target gene SL1344_1133	peptide, SL1344	5 µM, 15 min	relative to: water control	log2 fold change	-2.09
Polymyxin B	Staphylococcus aureus			concentration not given, with: NaCl 150 mM	relative to: no added salt	MIC fold change	8 fold
colistin	Pseudomonas aeruginosa		PA1120 PER-producing isolate			MIC	2 µg/mL
Polymyxin B	Staphylococcus aureus	DiSC3(5) fluorescence		concentration not given, 51 min	higher = more depolarisation	membrane depolarisation	729 a.u. and 532 a.u. and 578 a.u.
CTCATACTGA	Salmonella enterica serovar Typhimurium	RNA-seq, measured: yicC (SL1344_3701)	peptide, SL1344	5 µM, 15 min	relative to: water control	log2 fold change	-1.85
colistin	Escherichia coli	broth microdilution	clinical isolate RKI-No_521/16			MIC	8 µg/mL
TCACTATCTC	Salmonella enterica serovar Typhimurium	RNA-seq, measured: mpl (SL1344_4349)	peptide, SL1344	5 µM, 15 min	relative to: water control	log2 fold change	-1.41
Nisin	Bacillus subtilis		ATCC 6633	concentration not given		nucleoid width	0.58 µm and 0.59 µm and 0.51 µm
Polymyxin B	Pseudomonas aeruginosa		ATCC 27853	62.5 µg per disc, 24 h, 37 °C		inhibition zone diameter	10 mm
colistin	Klebsiella pneumoniae		9904, RPMI 1640 10% FBS	18 to 24 h, 37 °C		MIC	40 µM
GACATACTCT	Salmonella enterica serovar Typhimurium	RNA-seq, measured: gnd (SL1344_2058)	peptide, SL1344	5 µM, 15 min	relative to: water control	log2 fold change	-2.29
human hnRNP K	CYB5R4 knockout human cells	PP4 interaction, 3xFLAG-PP4C IP-MS		concentration not given	relative to: CYB5R4 KO over parental	log2 fold change	0.43
CTTTCATGCG (PNA, CPP-conjugated)	Salmonella enterica serovar Typhimurium	measured: CFU	peptide, SL1344, Caenorhabditis elegans infection model, worms	4 × MIC, 24 h	relative to: untreated	bacterial load reduction	96.2%

Repeated from above:
Substance	target or system	test	system	setting	scale	measurement	value
human hnRNP K	CYB5R4 knockout human cells	PP4 interaction, 3xFLAG-PP4C IP-MS		concentration not given	relative to: CYB5R4 KO over parental	log2 fold change	0.43
